Published values from different studies.
Lines come from different studies, so protocols differ. ± marks the error that the study gave. Converted amounts (≈) assume the structure as drawn.
UniProt F8G0P2, sequence (whole entry, unmodified, looked up): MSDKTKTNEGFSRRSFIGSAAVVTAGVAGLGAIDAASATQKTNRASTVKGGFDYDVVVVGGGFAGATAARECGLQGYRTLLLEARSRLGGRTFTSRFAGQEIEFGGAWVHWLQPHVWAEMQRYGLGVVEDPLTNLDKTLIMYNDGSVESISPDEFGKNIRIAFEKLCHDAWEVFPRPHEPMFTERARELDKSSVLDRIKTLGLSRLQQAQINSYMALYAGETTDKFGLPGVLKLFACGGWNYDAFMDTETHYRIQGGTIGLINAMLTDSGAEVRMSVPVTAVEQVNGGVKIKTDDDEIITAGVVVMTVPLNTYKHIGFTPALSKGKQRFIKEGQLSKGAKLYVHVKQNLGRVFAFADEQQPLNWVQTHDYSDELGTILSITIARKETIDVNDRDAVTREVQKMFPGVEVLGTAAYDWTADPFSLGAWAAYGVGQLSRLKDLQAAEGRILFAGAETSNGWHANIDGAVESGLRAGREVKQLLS
UniProt P01317, sequence (whole entry, looked up): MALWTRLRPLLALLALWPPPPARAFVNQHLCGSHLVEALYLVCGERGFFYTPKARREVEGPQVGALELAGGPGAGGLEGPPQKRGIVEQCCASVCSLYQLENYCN

Molecule | tested on | assay | system | conditions | endpoint | value
hdhb G39D/R40L/R41N/T17A (Clostridium sardiniense) | NC(=O)c1ccc[n+]([C@@H]2O[C@H](COP(=O)(O)OP(=O)(O)OC[C@H]3O[C@@H](n4cnc5c(N)ncnc54)[C@H](O)[C@@H]3O)[C@@H](O)[C@H]2O)c1 | steady-state kinetics | – | pH 8, 25 °C, cofactor varied | Km | 2830 µM
nicA2 T250V/T381V (Pseudomonas putida) | CN1CCC[C@H]1c1cccnc1 | steady-state kinetics | – | pH 7.4, 22 °C | kcat/Km | 10300 M⁻¹ s⁻¹
hdhb E18D/G39D/R40L/R41N/T17A (Clostridium sardiniense) | NC(=O)c1ccc[n+]([C@@H]2O[C@H](COP(=O)(O)OP(=O)(O)OC[C@H]3O[C@@H](n4cnc5c(N)ncnc54)[C@H](O)[C@@H]3O)[C@@H](O)[C@H]2O)c1 | steady-state kinetics | – | pH 8, 25 °C, cofactor varied | kcat/Km | 234 M⁻¹ s⁻¹
nicA2 (Pseudomonas putida, UniProt F8G0P2) | CN1CCC[C@H]1c1cccnc1 | steady-state kinetics | – | pH 7.4, 22 °C | kcat/Km | 53500 M⁻¹ s⁻¹
insulin | Insulin (INS, Bos taurus, UniProt P01317) | circular dichroism | – | 0 min | α-helix content | 53.9%
dmhA K162M (Campylobacter jejuni) | Nc1nc2c(ncn2[C@@H]2O[C@H](COP(=O)(O)OP(=O)(O)O[C@H]3O[C@H]([C@H](O)CO)[C@@H](O)[C@H](O)[C@@H]3O)[C@@H](O)[C@H]2O)c(=O)[nH]1 | steady-state kinetics | – | pH 7.5, 30 °C | kcat/Km | 36 ± 1 M⁻¹ s⁻¹
CC[C@H](C)[C@H](NC(=O)[C@H](CCCCN)NC(=O)[C@H](CCC(N)=O)NC(=O)[C@H](Cc1ccccc1)NC(=O)[C@@H](NC(=O)[C@H](CCCCN)NC(=O)[C@H](CCCCN)NC(=O)[C@H](CC(C)C)NC(=O)[C@H](C)NC(=O)[C@H](CC(N)=O)NC(=O)[C@@H](N)CC(C)C)C(C)C)C(=O)N[C@@H](Cc1c[nH]cn1)C(=O)N[C@@H](CCC(=O)O)C(=O)N[C@@H](C)C(N)=O | Pseudomonas aeruginosa | broth microdilution | ATCC 27853 | 18 h, 37 °C | MIC | 16 µM (≈ 26.2 µg/mL)
Aβ42, N-terminal Atto 488 | itself | single-molecule fluorescence burst analysis | – | 10 µM, 24 h, pH 7.5, 37 °C, labeled peptide alone, high DOL, after fibrillation | mean oligomer size | 2.78 N¯phot,mon
dmhA Y158F (Campylobacter jejuni) | Nc1nc2c(ncn2[C@@H]2O[C@H](COP(=O)(O)OP(=O)(O)O[C@H]3O[C@H]([C@H](O)CO)[C@@H](O)[C@H](O)[C@@H]3O)[C@@H](O)[C@H]2O)c(=O)[nH]1 | steady-state kinetics | – | pH 7.5, 30 °C | kcat/Km | 38 ± 3 M⁻¹ s⁻¹

Some of these lines once more:
Molecule | tested on | assay | system | conditions | endpoint | value
insulin | Insulin (INS, Bos taurus, UniProt P01317) | circular dichroism | – | 0 min | α-helix content | 53.9%
